Assay results collected from several papers.
A part holds a random share of what one study measured. Several values in a cell are separate wells, animals, samples, runs or records.
Chain of UniProt Q16816 (whole entry, looked up): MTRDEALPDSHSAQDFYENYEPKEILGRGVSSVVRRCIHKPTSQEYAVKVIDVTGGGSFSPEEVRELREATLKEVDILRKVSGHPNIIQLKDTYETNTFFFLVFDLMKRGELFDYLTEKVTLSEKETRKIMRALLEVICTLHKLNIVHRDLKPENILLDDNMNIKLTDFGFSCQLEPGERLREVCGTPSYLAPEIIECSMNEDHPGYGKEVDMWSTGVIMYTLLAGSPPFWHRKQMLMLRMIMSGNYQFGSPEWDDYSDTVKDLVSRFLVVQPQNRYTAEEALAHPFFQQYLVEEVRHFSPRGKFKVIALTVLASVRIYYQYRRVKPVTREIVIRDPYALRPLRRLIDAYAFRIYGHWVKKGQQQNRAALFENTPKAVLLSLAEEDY
Chain of UniProt P42336 (whole entry, unmodified, looked up): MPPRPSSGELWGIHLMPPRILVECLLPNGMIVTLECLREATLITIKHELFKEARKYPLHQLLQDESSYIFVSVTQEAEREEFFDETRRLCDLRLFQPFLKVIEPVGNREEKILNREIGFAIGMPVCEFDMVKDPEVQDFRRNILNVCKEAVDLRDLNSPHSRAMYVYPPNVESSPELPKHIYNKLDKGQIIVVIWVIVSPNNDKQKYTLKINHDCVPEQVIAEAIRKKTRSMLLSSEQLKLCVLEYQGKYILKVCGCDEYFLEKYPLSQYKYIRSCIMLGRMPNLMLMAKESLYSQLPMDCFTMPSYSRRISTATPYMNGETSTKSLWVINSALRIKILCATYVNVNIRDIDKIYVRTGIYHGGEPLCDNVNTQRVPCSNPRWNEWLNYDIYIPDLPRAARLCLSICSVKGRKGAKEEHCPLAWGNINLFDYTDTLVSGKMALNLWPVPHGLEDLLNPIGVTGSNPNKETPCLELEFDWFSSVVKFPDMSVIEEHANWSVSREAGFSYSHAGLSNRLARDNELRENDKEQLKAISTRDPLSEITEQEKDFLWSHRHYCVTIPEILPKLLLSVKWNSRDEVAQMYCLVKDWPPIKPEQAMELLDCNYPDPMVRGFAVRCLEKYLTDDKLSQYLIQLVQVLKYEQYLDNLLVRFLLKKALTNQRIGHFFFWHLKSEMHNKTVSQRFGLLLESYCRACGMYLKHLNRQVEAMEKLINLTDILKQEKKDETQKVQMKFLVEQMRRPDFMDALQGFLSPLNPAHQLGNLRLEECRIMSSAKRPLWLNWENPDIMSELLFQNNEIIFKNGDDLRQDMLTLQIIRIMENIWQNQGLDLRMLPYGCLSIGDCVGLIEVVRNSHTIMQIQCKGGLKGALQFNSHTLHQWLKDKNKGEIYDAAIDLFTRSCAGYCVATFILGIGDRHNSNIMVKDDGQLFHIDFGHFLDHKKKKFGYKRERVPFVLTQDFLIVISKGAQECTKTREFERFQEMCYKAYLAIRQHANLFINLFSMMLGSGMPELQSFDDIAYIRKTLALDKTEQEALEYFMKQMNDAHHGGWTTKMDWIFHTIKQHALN
Chain of UniProt Q9NSY1 (whole entry, looked up): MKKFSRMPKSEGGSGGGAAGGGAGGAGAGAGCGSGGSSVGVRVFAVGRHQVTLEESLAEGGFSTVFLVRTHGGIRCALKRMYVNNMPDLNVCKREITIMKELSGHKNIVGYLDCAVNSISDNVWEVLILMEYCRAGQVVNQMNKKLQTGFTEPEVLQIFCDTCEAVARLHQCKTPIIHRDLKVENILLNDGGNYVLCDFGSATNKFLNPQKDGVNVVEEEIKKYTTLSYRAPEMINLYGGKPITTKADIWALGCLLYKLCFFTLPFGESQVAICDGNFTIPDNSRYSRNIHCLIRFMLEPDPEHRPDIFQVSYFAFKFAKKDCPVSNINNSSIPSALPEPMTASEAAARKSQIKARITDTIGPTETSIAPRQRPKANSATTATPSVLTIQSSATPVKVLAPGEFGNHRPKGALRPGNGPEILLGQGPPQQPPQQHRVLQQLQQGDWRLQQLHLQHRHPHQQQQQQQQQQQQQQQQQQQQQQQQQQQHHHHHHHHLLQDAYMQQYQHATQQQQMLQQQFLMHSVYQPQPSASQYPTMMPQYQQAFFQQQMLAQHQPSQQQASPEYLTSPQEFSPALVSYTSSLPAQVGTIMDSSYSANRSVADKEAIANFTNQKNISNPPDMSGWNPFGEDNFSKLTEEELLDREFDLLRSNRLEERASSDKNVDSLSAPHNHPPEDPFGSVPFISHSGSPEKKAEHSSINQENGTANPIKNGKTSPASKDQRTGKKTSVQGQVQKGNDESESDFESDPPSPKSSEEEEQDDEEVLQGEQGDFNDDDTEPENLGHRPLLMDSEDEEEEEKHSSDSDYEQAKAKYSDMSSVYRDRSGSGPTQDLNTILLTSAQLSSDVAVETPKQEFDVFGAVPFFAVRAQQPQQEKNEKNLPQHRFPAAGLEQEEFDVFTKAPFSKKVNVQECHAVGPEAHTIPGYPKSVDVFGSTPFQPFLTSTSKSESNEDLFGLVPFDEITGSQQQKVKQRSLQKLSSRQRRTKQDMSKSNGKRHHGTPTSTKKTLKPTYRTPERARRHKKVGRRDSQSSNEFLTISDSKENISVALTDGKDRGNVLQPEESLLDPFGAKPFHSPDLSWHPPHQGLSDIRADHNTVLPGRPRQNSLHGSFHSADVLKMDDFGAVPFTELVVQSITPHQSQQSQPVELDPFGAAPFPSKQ
Chain of UniProt Q9P286 (whole entry, looked up): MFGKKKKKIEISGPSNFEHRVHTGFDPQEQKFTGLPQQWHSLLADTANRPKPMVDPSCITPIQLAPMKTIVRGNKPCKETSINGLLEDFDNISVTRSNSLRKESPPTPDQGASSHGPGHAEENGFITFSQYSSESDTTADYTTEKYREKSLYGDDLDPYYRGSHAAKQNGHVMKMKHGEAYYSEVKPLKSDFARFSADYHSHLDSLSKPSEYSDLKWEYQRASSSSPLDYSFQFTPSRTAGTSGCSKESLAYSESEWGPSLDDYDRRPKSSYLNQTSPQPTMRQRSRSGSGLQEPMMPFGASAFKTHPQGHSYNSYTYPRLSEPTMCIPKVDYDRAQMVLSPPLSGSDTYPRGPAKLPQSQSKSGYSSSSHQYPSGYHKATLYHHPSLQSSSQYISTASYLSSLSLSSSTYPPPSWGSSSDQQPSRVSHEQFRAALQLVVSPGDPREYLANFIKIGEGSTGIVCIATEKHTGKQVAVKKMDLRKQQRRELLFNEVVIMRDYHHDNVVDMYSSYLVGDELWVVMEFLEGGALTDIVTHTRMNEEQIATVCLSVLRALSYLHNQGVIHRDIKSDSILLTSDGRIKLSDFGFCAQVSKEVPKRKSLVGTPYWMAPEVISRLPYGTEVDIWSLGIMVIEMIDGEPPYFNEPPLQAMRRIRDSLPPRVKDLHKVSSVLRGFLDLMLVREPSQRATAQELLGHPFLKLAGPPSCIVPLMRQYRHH

Series 1
Target: Vascular endothelial growth factor receptor 1 (FLT1, Homo sapiens, UniProt P17948)
Chain of UniProt P17948 (whole entry, looked up): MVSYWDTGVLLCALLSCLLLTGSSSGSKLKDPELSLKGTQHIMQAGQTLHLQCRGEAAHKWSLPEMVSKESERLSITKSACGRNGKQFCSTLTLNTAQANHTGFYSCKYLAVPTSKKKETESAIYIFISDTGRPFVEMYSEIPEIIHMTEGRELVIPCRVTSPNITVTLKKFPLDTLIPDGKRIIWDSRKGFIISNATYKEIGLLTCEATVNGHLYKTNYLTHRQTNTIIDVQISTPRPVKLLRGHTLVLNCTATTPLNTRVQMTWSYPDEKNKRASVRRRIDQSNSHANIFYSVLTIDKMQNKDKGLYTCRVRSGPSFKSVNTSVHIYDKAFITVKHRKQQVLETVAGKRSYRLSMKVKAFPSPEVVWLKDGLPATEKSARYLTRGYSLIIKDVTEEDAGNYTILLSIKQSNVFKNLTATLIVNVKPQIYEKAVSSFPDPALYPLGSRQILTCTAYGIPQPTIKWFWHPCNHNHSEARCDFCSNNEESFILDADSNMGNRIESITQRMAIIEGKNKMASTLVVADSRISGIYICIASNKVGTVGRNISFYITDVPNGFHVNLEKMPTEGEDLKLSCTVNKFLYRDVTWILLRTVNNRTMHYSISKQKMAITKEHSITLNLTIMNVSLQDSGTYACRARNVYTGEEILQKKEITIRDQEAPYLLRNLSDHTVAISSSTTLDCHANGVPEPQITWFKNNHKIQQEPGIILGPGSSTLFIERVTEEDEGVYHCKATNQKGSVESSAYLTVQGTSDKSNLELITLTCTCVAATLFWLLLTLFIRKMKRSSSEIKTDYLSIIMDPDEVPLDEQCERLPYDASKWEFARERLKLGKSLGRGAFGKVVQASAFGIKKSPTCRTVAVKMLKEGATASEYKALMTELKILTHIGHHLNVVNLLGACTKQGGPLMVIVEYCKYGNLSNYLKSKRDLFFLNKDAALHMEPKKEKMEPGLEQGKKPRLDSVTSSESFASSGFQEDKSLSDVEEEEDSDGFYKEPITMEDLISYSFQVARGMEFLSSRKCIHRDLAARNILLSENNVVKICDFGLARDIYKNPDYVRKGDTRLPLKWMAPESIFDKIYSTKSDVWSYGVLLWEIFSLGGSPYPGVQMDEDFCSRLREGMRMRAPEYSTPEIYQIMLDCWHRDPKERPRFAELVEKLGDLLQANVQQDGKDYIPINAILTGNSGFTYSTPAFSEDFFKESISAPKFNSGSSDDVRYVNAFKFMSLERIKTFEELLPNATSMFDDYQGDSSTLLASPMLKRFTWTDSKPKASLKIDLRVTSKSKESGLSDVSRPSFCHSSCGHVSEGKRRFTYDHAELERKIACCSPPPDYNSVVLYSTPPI
Effect on: enzyme activity
Mode: inhibitor
Concentration: 0.5 µM
Baseline: control
Measurement: remaining activity
Ic1cccc(CSc2nnc(-c3ccncc3)o2)c1: 91%
O=c1cc(-c2cccc3c2Sc2ccccc2S3)oc(N2CCOCC2)c1: 90.8%
Cc1cn(-c2cc(NC(=O)c3ccc(C)c(Nc4nccc(-c5cccnc5)n4)c3)cc(C(F)(F)F)c2)cn1: 99.2%
c1ccc(-c2cnc(Nc3ccc(OCCN4CCCC4)cc3)s2)cc1: 74.5%
Cn1nc2c3c(cccc31)C(=O)c1ccccc1-2: 84.3%
CCN(CC)C(=O)c1ccc(Nc2nc(OCC3CCCCC3)c3[nH]cnc3n2)cc1: 84%
CCN(CC)CCNC(=O)c1c(C)[nH]c(/C=C2\C(=O)Nc3ccc(Cl)cc32)c1C: 34.4%
N#Cc1c(NC(=O)c2cccc3ccccc23)sc2c1CCCC2: 84.4%
COc1cc2ncnc(Nc3cccc(Cl)c3)c2cc1OC: 74.4%
Nc1cccc(-c2cc3c(Oc4cccc(O)c4)ncnc3[nH]2)c1: 8.56%
CCN(CC)CCNC(=O)c1c(C)[nH]c(/C=C2\C(=O)Nc3ccc(F)cc32)c1C: 58.7%
COc1cc2c(cc1OC)-c1[nH]nc(Nc3cccc(F)c3)c1C2: 82.6%
CN([C@@H](Cc1ccc(OS(=O)(=O)c2cccc3cnccc23)cc1)C(=O)N1CCN(c2ccccc2)CC1)S(=O)(=O)c1cccc2cnccc12: 86.5%
Cc1nc2cc3nc(-c4cccs4)cnc3cc2n1C: 93.6%
O=C1C(Cl)=C(N2C(=O)CCC2=O)C(=O)c2ccccc21: 87.8%
C[C@@H]1CCN(C(=O)CC#N)C[C@@H]1N(C)c1ncnc2[nH]ccc12: 101%
c1ccc(-c2[nH]ncc2-c2ccnc3ccccc23)nc1: 81.4%
N#C/C(=C\c1ccc(O)c(O)c1)C(=O)NCc1ccccc1: 88%
O=C(NC(NC(=S)Nc1ccc(F)c([N+](=O)[O-])c1)C(Cl)(Cl)Cl)C(c1ccccc1)c1ccccc1 (centres unmarked): 97.2%
O=C(Nc1cccc(Nc2nccc(Nc3cccc(C(F)(F)F)c3)n2)c1)C1CC1: 97%
COc1cc2ncnc(Nc3ccc(O)c(Br)c3)c2cc1OC: 83.4%
Cc1cc2ncc(-c3ccccc3)nc2cc1C: 85.2%
O=C1c2ccccc2-c2n[nH]c3cccc1c23: 87.3%
CCOc1nc(NC(=O)Cc2cc(OC)ccc2OC)cc(N)c1C#N: 85.5%

Series 2
Compound: CO[C@@H](C)c1c(Nc2ccc([C@H](N(C)C(=O)C3CCS(=O)(=O)CC3)C(F)(F)F)cc2)cnc2cc(Cl)nn12
Effect on: cell-free assay
Method: competition with immobilised ligand
Concentration: 1 µM
Measurement: remaining binding
Tyrosine-protein kinase ABL1, non-phosphorylated (ABL1, Homo sapiens, UniProt P00519, H396P): 95%
PIK3CA (Homo sapiens, UniProt P42336, H1047Y): 62%
NEK10 (Homo sapiens, UniProt Q6ZWH5): 100%
ACVR2B (Homo sapiens, UniProt Q13705): 66%
RIOK2 (Homo sapiens, UniProt Q9BVS4): 90%
OXSR1 (Homo sapiens, UniProt O95747): 100%
PHKG1 (Homo sapiens, UniProt Q16816): 93%
GRK4 (Homo sapiens, UniProt P32298): 85%
PAK5 (Homo sapiens, UniProt Q9P286): 100%
FLT1 (Homo sapiens, UniProt P17948): 82%
MAP4K1 (Homo sapiens, UniProt Q92918): 100%
FLT3 (Homo sapiens, UniProt P36888, D835V/ITD): 85%
BMP2K (Homo sapiens, UniProt Q9NSY1): 89%
MAP3K19 (Homo sapiens, UniProt Q56UN5): 91%
MAP3K15 (Homo sapiens, UniProt Q6ZN16): 100%

Series 3
Organism: Sarcocystis neurona
Effect on: parasite growth
Concentration: 10 µM
Time: 96 h
Setting: second screen
Baseline: untreated
Measurement: log2 fold change
[H]/N=C(/NCCCCC)N/N=C/c1c[nH]c2ccc(OC)cc12: -6.28
COC(=O)C[C@](O)(CCCC(C)(C)O)C(=O)O[C@@H]1C(OC)=C[C@]23CCCN2CCc2cc4c(cc2[C@H]13)OCO4: -6.56
O=C(O)CCNC(=O)c1ccc(/N=N/c2ccc(O)c(C(=O)O)c2)cc1: 0.24
CN(C)CC[C@@H](c1ccc(Cl)cc1)c1ccccn1: 0.25
Oc1ccc(C2CNCCc3c2cc(O)c(O)c3Cl)cc1 (centres unmarked): 0.56
CC[C@]1(O)C[C@H]2CN(CCc3c([nH]c4ccccc34)[C@@](C(=O)OC)(c3cc4c(cc3OC)N(C=O)[C@H]3[C@@](O)(C(=O)OC)[C@H](OC(C)=O)[C@]5(CC)C=CCN6CC[C@]43[C@@H]65)C2)C1: 0.29
COc1cccc2c1C(=O)c1c(O)c3c(c(O)c1C2=O)C[C@@](O)(C(=O)CO)C[C@@H]3O[C@H]1C[C@H](N)[C@H](O)[C@H](C)O1: -0.79
CC(C)NCC(O)c1cc(O)cc(O)c1 (centres unmarked): 0.39
O=C(O)c1cc(-c2ccc(F)cc2F)ccc1O: 0.28
CCC(C)(C)C(=O)O[C@H]1C[C@@H](C)C=C2C=C[C@H](C)[C@H](CC[C@@H]3C[C@@H](O)CC(=O)O3)[C@H]21: 0.55
COc1ccc2cc(CCC(C)=O)ccc2c1: 2.51
c1ccc2[nH]c(-c3cscn3)nc2c1: 2.36
CC1=C(/C=C/C(C)=C/C=C/C(C)=C/C(=O)O)C(C)(C)CCC1: 0.54
CC/C(=C(\c1ccccc1)c1ccc(OCCN(C)C)cc1)c1ccccc1: 0.36
c1cnc(N2CCN(Cc3ccc4c(c3)OCO4)CC2)nc1: 0.6
CCOC(=O)C1=C(C)NC(C)=C(C(=O)OCC)C1c1ccccc1/C=C/C(=O)OC(C)(C)C: 0.09

Series 4
Cell line: mouse MPNST tumor cells
Method: high-content immunofluorescence imaging
Item: nuclear SOX9
Concentration: 10 µM
Time: 12 h
Setting: mean of 2 replicates
Baseline: DMSO control
Reading: higher = more nuclear SOX9
Measurement: nuclear SOX9 intensity
CC(C(O)c1ccc(O)cc1)N1CCC(Cc2ccccc2)CC1 (centres unmarked): 144 % of DMSO
C[C@H](c1ccc(F)cc1CCCC(=O)O)N(c1cc(F)ccc1F)S(=O)(=O)c1ccc(Cl)cc1: 122 % of DMSO
COc1cc(C(=O)NCC2(N(C)C)CCCC2)cc(OC)c1OCc1ccccc1: 136 % of DMSO
O=C1NCC2(CCN(CCc3ccccc3)CC2)O1: 92.2 % of DMSO
NNC(=O)CSc1nc2scc(-c3ccccc3)c2c(=O)n1-c1ccccc1: 110 % of DMSO
C[C@H](N=C(NC#N)Nc1cccc2ncccc12)c1ccccc1: 108 % of DMSO
O=C(COc1ccc(C(=O)c2ccccc2)cc1)NC1CCN(Cc2ccccc2)CC1: 119 % of DMSO
O=c1n(CCCN2CCN(c3cccc(Cl)c3)CC2)nc2ccccn12: 103 % of DMSO and 124 % of DMSO
Cc1ccc(NC(=O)CCCCCC(=O)Nc2ccccc2N)cc1: 89.8 % of DMSO
CC[C@H](CO)Nc1nc(NCc2ccccc2)c2ncn(C(C)C)c2n1: 82.8 % of DMSO

A few entries again (series 1):
O=C(Nc1cccc(Nc2nccc(Nc3cccc(C(F)(F)F)c3)n2)c1)C1CC1: 97%
CCOc1nc(NC(=O)Cc2cc(OC)ccc2OC)cc(N)c1C#N: 85.5%
Cc1cc2ncc(-c3ccccc3)nc2cc1C: 85.2%
c1ccc(-c2cnc(Nc3ccc(OCCN4CCCC4)cc3)s2)cc1: 74.5%
N#C/C(=C\c1ccc(O)c(O)c1)C(=O)NCc1ccccc1: 88%
